Measurements pooled from the literature.
Every numbered part comes from another study and shows a few of its results, in no order.
Sequence of UniProt P21127 (whole entry, looked up): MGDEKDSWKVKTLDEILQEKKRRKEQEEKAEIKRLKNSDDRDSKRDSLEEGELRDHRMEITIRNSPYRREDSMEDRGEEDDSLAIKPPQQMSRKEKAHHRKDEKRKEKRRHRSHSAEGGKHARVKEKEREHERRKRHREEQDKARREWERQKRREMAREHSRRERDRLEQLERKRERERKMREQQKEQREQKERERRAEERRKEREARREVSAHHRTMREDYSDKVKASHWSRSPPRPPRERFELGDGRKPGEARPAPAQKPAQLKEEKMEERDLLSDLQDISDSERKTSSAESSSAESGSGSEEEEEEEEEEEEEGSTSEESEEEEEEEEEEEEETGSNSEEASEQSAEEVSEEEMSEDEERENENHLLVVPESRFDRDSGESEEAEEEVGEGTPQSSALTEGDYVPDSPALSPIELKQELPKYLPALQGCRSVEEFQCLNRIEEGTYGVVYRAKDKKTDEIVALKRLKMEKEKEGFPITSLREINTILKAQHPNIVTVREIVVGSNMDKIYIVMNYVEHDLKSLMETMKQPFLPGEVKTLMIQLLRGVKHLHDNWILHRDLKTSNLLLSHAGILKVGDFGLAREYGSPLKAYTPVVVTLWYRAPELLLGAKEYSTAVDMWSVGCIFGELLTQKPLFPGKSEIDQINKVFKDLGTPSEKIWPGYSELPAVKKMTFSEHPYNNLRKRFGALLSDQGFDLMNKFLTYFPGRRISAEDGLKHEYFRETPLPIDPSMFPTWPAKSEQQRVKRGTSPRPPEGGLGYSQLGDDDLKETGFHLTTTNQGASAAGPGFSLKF
Sequence of UniProt Q9C098 (whole entry, looked up): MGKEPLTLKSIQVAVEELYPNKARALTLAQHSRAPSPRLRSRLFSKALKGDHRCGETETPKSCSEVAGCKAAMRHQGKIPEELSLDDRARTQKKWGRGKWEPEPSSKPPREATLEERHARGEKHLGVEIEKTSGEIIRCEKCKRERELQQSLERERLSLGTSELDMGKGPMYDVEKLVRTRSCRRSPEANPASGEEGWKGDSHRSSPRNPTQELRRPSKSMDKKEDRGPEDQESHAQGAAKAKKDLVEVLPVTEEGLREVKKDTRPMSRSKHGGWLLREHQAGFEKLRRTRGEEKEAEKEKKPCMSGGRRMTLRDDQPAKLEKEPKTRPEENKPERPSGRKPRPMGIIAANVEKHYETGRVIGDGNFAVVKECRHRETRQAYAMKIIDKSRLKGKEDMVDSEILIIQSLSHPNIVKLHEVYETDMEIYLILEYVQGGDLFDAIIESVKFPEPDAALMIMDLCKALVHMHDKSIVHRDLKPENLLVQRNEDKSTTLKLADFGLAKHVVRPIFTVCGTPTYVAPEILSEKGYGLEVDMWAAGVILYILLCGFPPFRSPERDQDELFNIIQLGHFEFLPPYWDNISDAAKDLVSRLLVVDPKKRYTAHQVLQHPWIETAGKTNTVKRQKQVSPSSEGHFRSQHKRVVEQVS
Sequence of UniProt Q16288 (whole entry, looked up): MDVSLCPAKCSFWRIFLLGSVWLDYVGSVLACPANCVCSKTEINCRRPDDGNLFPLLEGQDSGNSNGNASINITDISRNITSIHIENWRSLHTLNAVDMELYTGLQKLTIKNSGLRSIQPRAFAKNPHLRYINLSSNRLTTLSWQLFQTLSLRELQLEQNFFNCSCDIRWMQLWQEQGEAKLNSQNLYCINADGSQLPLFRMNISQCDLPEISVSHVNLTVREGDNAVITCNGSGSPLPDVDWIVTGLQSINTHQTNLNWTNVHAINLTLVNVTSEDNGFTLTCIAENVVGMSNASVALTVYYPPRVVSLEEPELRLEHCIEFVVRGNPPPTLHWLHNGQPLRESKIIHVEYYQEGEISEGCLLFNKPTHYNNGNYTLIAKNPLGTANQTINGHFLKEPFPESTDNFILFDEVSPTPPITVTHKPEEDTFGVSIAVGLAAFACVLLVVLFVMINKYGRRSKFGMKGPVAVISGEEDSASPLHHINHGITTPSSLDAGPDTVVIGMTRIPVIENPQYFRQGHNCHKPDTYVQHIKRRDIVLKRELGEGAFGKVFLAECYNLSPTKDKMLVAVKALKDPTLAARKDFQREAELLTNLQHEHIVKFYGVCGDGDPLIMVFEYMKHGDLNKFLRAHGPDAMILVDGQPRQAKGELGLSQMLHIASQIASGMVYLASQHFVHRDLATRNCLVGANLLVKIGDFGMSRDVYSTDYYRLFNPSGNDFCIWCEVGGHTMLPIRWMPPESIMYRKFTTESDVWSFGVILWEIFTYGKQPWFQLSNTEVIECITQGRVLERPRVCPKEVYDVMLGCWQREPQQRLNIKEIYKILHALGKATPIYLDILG
Sequence of UniProt Q13976 (whole entry, looked up): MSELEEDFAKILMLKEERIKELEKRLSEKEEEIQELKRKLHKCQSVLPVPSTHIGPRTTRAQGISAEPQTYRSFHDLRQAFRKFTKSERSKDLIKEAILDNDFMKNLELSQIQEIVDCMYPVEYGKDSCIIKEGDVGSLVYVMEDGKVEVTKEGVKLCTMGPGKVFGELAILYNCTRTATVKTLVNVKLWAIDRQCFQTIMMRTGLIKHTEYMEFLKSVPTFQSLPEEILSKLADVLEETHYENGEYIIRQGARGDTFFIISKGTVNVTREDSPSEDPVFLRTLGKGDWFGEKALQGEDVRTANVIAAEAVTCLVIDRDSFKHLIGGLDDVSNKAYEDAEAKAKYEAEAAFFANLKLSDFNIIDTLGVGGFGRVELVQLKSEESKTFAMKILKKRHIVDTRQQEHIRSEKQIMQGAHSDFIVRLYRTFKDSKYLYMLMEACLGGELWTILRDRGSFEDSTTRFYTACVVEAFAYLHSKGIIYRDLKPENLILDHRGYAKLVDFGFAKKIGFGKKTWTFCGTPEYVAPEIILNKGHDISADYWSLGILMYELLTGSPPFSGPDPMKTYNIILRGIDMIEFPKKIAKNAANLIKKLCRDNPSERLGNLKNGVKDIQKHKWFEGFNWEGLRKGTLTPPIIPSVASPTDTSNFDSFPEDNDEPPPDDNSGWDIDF
Sequence of UniProt P78368 (whole entry, looked up): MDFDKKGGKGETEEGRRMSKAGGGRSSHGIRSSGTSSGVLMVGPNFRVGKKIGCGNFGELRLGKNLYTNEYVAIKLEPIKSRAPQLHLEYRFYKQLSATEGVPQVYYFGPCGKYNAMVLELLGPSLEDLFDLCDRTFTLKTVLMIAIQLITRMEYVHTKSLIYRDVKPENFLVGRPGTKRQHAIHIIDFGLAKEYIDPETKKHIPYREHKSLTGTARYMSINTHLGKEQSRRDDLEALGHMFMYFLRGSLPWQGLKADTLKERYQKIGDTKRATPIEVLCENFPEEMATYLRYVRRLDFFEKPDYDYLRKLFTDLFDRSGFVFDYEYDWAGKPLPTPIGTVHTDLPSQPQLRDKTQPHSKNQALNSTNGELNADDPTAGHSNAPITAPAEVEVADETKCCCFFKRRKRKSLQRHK
Sequence of UniProt P10721 (whole entry, unmodified, looked up): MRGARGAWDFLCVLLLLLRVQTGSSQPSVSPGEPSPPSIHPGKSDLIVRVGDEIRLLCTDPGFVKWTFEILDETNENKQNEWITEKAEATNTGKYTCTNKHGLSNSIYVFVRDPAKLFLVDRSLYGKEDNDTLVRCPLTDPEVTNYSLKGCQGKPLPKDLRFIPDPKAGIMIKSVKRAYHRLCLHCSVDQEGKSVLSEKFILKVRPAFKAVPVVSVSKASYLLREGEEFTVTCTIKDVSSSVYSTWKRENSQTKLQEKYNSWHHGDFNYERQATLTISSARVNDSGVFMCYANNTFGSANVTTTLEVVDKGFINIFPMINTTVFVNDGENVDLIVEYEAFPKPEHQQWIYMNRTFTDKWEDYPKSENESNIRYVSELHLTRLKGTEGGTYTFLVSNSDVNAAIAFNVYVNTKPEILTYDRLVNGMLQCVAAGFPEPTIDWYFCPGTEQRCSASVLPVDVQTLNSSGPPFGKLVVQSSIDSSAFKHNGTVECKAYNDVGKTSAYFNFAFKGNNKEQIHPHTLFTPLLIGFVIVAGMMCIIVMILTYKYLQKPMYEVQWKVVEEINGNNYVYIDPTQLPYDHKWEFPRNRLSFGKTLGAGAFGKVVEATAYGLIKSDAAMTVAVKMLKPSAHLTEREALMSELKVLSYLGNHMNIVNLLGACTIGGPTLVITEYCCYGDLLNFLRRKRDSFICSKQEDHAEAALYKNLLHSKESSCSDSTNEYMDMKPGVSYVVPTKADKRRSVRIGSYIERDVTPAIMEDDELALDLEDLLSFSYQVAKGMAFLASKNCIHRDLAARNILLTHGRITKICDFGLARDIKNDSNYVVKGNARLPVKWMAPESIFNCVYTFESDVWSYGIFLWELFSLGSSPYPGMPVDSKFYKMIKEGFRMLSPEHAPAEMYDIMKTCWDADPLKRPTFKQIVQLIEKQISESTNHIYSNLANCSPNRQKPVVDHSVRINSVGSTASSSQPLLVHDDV
Sequence of UniProt Q13555 (whole entry, looked up): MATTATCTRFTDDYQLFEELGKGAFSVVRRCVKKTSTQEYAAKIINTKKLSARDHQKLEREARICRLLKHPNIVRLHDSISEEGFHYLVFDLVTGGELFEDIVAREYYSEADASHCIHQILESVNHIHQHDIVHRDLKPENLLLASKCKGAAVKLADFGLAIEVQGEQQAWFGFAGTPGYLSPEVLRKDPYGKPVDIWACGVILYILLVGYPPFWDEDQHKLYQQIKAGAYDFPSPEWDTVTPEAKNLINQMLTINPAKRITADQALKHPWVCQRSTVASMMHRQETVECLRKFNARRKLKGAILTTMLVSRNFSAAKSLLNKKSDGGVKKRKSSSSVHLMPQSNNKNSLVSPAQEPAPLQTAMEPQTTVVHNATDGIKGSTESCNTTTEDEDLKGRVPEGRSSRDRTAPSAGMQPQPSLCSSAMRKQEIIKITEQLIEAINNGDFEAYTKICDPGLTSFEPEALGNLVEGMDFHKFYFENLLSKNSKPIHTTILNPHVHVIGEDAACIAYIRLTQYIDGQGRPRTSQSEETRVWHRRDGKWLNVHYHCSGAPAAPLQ

Block 1 — dose: dose not given; relative to: vehicle
Structure (SMILES): CC(=O)N[C@@H](Cc1c[nH]c2ccccc12)C(=O)N[C@@H](CCC(=O)C=[N+]=[N-])C(=O)OC(C)C
technique	measured	species	medium	log2 fold change
–	riboflavin	mouse, EL4 tumour	tumour	-0.398
–	4-methyl-2-oxopentanoate	mouse, EL4 tumour-bearing	EL4 tumour	1.45
–	orotate	mouse, EL4 tumour-bearing	EL4 tumour	-0.865
–	sedoheptulose	mouse, EL4 tumour-bearing	EL4 tumour	0.252
–	sulfate*	mouse, EL4 tumour-bearing	EL4 tumour	0.27
metabolomics	2-hydroxy-4-(methylthio)butanoic acid	mouse	EL4 tumour	-1.34
–	N-acetyl-glucosamine 1-phosphate	mouse, EL4 tumour-bearing	EL4 tumour	0.594
–	malate	mouse, EL4 tumour-bearing	EL4 tumour	-0.34
–	S-adenosylhomocysteine	Mus musculus	EL4 tumour	-1.18

Block 2 — read-out: cell-free assay; technique: competition with immobilised ligand; tested at: 1 µM
Structure (SMILES): O=C(NCc1ncc(C(F)(F)F)cc1Cl)c1ccc2c(c1)C1(CCS(=O)(=O)CC1)[C@H](C1CC1)N2S(=O)(=O)c1ccc(F)cc1
target	remaining binding
Phosphatidylinositol 4-kinase beta (PI4KB, Homo sapiens, UniProt Q9UBF8)	78%
Calcium/calmodulin-dependent protein kinase type II subunit gamma (CAMK2G, Homo sapiens, UniProt Q13555)	100%
SRSF protein kinase 3 (SRPK3, Homo sapiens, UniProt Q9UPE1)	100%
Dual specificity protein kinase TTK (TTK, Homo sapiens, UniProt P33981)	78%
Serine/threonine-protein kinase DCLK3 (DCLK3, Homo sapiens, UniProt Q9C098)	92%
cGMP-dependent protein kinase 1 (PRKG1, Homo sapiens, UniProt Q13976)	100%
NT-3 growth factor receptor (NTRK3, Homo sapiens, UniProt Q16288)	84%
Phosphatidylinositol 4-phosphate 3-kinase C2 domain-containing subunit beta (PIK3C2B, Homo sapiens, UniProt O00750)	100%
Tyrosine-protein kinase JAK1, JH2 (JAK1, Homo sapiens, UniProt P23458)	87%
Mast/stem cell growth factor receptor Kit (KIT, Homo sapiens, UniProt P10721, D816H)	79%
Casein kinase I isoform gamma-2 (CSNK1G2, Homo sapiens, UniProt P78368)	100%
Cyclin-dependent kinase 11B (CDK11B, Homo sapiens, UniProt P21127)	100%

Block 3 — organism: Sarcocystis neurona; read-out: parasite growth; tested at: 10 µM; time: 96 h; setting: first screen; relative to: untreated
Structure (SMILES)	log2 fold change
CCN1CCC[C@H]1CNC(=O)c1c(O)c(Cl)cc(Cl)c1OC	-0.62
C[C@](N)(Cc1ccc(O)c(O)c1)C(=O)O	0.23
CCS(=O)(=O)CCn1c([N+](=O)[O-])cnc1C	-0.06
CCc1oc2ccccc2c1C(=O)c1cc(Br)c(O)c(Br)c1	-0.06
C=CC1=C(C(=O)O)N2C(=O)[C@@H](NC(=O)/C(=N\O)c3csc(N)n3)[C@H]2SC1	0.3
CC(C(=O)O)c1ccc(CC2CCCC2=O)cc1 (stereo not shown)	0.12
CCC1(c2ccccc2)C(=O)NCNC1=O	0.33
COc1c2occc2cc2ccc(=O)oc12	0.09
O=c1c(O[C@@H]2O[C@H](CO)[C@H](O)[C@H](O)[C@H]2O)c(-c2ccc(O)c(O)c2)oc2cc(O)cc(O)c12	-0.0464
NS(=O)(=O)c1cc2c(cc1Cl)NCNS2(=O)=O	0.26

Block 4 — read-out: enzyme activity; mode: inhibitor; tested at: 0.5 µM; relative to: control
Target: Serine/threonine-protein kinase NLK (NLK, Homo sapiens, UniProt Q9UBE8)
Residues (Q9UBE8 1-527): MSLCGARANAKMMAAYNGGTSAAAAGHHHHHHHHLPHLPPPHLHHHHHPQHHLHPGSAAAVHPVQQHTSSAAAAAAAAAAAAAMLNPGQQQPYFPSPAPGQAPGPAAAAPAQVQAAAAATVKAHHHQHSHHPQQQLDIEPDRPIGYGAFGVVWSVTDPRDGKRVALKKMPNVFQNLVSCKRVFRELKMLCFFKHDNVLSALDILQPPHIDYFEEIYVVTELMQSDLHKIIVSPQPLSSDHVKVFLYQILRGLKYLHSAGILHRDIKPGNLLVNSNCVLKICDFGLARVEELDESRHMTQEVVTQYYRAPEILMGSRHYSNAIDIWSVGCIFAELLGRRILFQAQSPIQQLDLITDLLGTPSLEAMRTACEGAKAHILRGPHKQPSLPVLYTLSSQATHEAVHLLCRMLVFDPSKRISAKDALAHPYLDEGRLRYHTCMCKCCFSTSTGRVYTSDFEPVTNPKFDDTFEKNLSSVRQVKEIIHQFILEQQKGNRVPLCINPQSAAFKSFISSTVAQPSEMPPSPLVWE
Compound	remaining activity
Cc1ccc(NC2=CC(=O)c3sc(C)nc3C2=O)cc1	107%
O=C1Cc2c([nH]c3ccc([N+](=O)[O-])cc23)-c2ccccc2N1	95.5%
O=C1NC(=O)C(c2c[nH]c3ccccc23)=C1c1c[nH]c2ccccc12	103%
Oc1ccc(Nc2nc(-c3ccc(Cl)cc3)cs2)cc1	101%
O=S(=O)(NCCNC/C=C/c1ccc(Br)cc1)c1cccc2cnccc12	94.9%
CC[n+]1c(/C=C/N(C)c2ccccc2)n(-c2ccccc2)c2ccc(-c3nc4ccccc4s3)cc21	105%
CSc1nc(-c2ccnc(N[C@@H](C)c3ccccc3)c2)c(-c2ccc(F)cc2)[nH]1 (racemic)	30.7%
CCCC(=O)Oc1ccc2[nH]c(C(=O)c3cc4ccccc4[nH]3)cc2c1	106%
CC(=O)c1ccc(N2CCOCC2)cc1O	95.6%

Repeated from above (block 2):
target	remaining binding
Phosphatidylinositol 4-kinase beta (PI4KB, Homo sapiens, UniProt Q9UBF8)	78%
Calcium/calmodulin-dependent protein kinase type II subunit gamma (CAMK2G, Homo sapiens, UniProt Q13555)	100%
SRSF protein kinase 3 (SRPK3, Homo sapiens, UniProt Q9UPE1)	100%
Dual specificity protein kinase TTK (TTK, Homo sapiens, UniProt P33981)	78%
Serine/threonine-protein kinase DCLK3 (DCLK3, Homo sapiens, UniProt Q9C098)	92%
